Published values gathered from unrelated publications.
Compare with care: the assays were run in different laboratories. Numbers after ± are the reported error.

CN1CCC(N[C@@H]2CCc3[nH]c4c(C(N)=O)ccc(-c5ccccc5Cl)c4c3C2)CC1  regressing tumours (BALB/c nude mouse RKO xenograft; oral, 20 mg/kg daily): 64%
O=C(NCc1cc(F)cc(F)c1)[C@@]1(O)CCN(c2ccc3[nH]ccc3c2)C1=O  T/C (CAKI-1 xenograft, mouse; oral, 10 mg/kg twice daily): 71%
Cc1ccc(-c2nc3cc(Cl)ccc3[nH]2)o1  IC50 (ABTS scavenging, absorbance): 1.46 µM
N=C(N)NCCC[C@H](NC(=O)[C@@H]1CCCN1C(=O)[C@@H]1CSSCCC(=O)N[C@]2(CC[C@@H](c3ccccc3)CC2)C(=O)N[C@@H](Cc2ccccc2)C(=O)N[C@@H](CCC(N)=O)C(=O)N[C@@H](CC(N)=O)C(=O)N1)C(=O)NCC(N)=O  pA2 (anti-oxytocic activity, antagonist; isolated rat uterus strips; without Mg2+): 8.46
CC(C)C[C@@H]1NC(=O)[C@@H]2CSSC[C@@H]3NC(=O)[C@H]([C@@H](C)O)NC(=O)[C@H](C)NC(=O)[C@H](C)NC(=O)[C@@H]4CCCN4C(=O)[C@H](CC(=O)O)NC(=O)[C@H](CSSC[C@H](NC(=O)[C@H](CCCNC(=N)N)NC(=O)[C@H](CCCNC(=N)N)NC(=O)[C@H](CO)NC(=O)[C@@H](N)CO)C(=O)N[C@@H](C(C)C)C(=O)N[C@@H](CCCNC(=N)N)C(=O)N[C@@H](CC(C)C)C(=O)N[C@@H](Cc4c[nH]cn4)C(=O)N[C@@H](CCC(=O)O)C(=O)N[C@@H](CO)C(=O)N2)NC(=O)[C@H](CSSC[C@@H](C(=O)N[C@@H](CCCNC(=N)N)C(N)=O)NC(=O)[C@H](Cc2ccc(O)cc2)NC(=O)[C@@H]2CSSC[C@H](NC(=O)[C@H](Cc4ccc(O)cc4)NC3=O)C(=O)N[C@@H](CCCNC(=N)N)C(=O)N[C@@H](Cc3ccccc3)C(=O)N[C@@H](Cc3ccccc3)C(=O)N[C@@H](CC(N)=O)C(=O)N[C@@H](C)C(=O)N[C@@H](Cc3ccccc3)C(=O)N2)NC(=O)[C@@H]2CCCN2C(=O)[C@H](C(C)C)NC(=O)[C@H](CCC(N)=O)NC(=O)[C@H](CCC(N)=O)NC(=O)CNC1=O  food intake (Long-Evans rat, male; intracerebroventricular, 1.0 nmol in 1.0 µL, 24 h, non-cumulative; baseline: saline): 64.3 ± 5.4 % above saline
COc1ccc(-c2oc3ccccc3c(=O)c2OCc2ccccc2)cc1  blood glucose (diabetic rat; 5 mg/kg, day 21, p-nitrophenyl β-glucoside induced): 149 ± 4.83 mg/dL
CCOc1ccc(C[C@@H]2NC(=O)[C@@H](N)CSSC[C@@H](C(=O)N3CCC[C@H]3C(=O)N[C@@H](CC(C)C)C(=O)NCC(N)=O)NC(=O)[C@H](CC(N)=O)NC(=O)[C@H](CCC(N)=O)NC(=O)[C@H]([C@@H](C)CC)NC2=O)cc1  pA2 (antagonist; Bufo marinus urinary bladder; with: [2-O-methyltyrosine]-oxytocin): 7.22
CN(C)c1ccc2c(-c3cc(C(=O)N4CCN(CCCOc5ccc6nccc(C(=O)NCC(=O)N7CC(F)(F)C[C@H]7C#N)c6c5)CC4)ccc3C(=O)[O-])c3ccc(=[N+](C)C)cc-3oc2c1  labelled tumour cells (flow cytometry; mouse B16-F10 tumour, tumour; intravenous, dose not given, 1 h): < 0.1%
Cc1ccc(-c2oc3ccccc3c(=O)c2OCc2ccccc2)cc1  blood glucose (diabetic rat; 5 mg/kg, day 21, p-nitrophenyl β-glucoside induced): 173 ± 4.8 mg/dL
CCOC(=O)c1cc2c(N)c(C(=O)OC)sc2nc1C  urea excretion (Sprague-Dawley rats; subcutaneous, dose not given; baseline: vehicle): no effect
Cc1cc(O)cc(O)c1C(=O)c1c2c3c(c(O)cc(C)c3oc1=O)C(=O)c1c(O)cc(O)cc1-2  T/C (Bel-7402 xenograft, mouse; intraperitoneal, 7 mg/kg, day 21): 59.9%
O=c1c(OCc2ccccc2)c(-c2cccc([N+](=O)[O-])c2)oc2ccccc12  blood glucose (diabetic rat; 5 mg/kg, day 28, p-nitrophenyl β-glucoside induced): 153 ± 4.73 mg/dL
CC(=O)Oc1cc2c(s1)CCN(C(C(=O)C1CC1)c1ccccc1F)C2 (centres unmarked)  patients with high reactivity (ADP-induced platelet aggregation, LTA, >59% aggregation; human patients, platelet-rich plasma; dose not given, 1 h, with: ADP 20 µM): 67%
C[C@H](NC(=O)COC(=O)[C@H](C)NC(=O)CO)C(=O)O  depolymerization rate constant (water; pH 7, 25 °C): 1.11 h⁻¹
CC[C@@H](C)N([11CH3])C(=O)c1nc(-c2ccccc2)c2ccccc2n1  TSPO specific binding (PET from VT; rhesus monkey, cerebellum; dose not given): 42%
O=c1c(OCc2ccccc2)c(-c2ccc([N+](=O)[O-])cc2)oc2ccccc12  blood glucose (diabetic rat; 5 mg/kg, day 14, p-nitrophenyl β-glucoside induced): 243 ± 4.79 mg/dL
C=C(c1ccc(C(=O)O)c(F)c1)c1cc2c(cc1C)C(C)(C)C=CC2(C)C  log2 fold change (RNA sequencing, refers to: Scd1; rat, brain; dose not given, 24 h; baseline: vehicle): -1.95
CN(C)c1ccc(-c2oc3ccccc3c(=O)c2OCc2ccccc2)cc1  blood glucose (diabetic rat; 5 mg/kg, day 7, p-nitrophenyl β-glucoside induced): 331 ± 4.73 mg/dL
O=C(NCCN1C(=O)C=CC1=O)[O][Pt-2]12([O]C(=O)NCCN3C(=O)C=CC3=O)([NH2+][C@@H]3CCCC[C@H]3[NH2+]1)[O]C(=O)C(=O)[O]2  cleaved caspase-3 positive cells (immunohistochemistry; BALB/c mouse CT26 allograft, tumour; dose not given, day 12): 30%
COc1cc(CN2CCN(c3ccc(Cl)cc3)CC2)c2cc3[n+](cc2c1O)CCc1cc2c(cc1-3)OCO2  IC50 (ABTS scavenging, absorbance; 10 min): 5.82 µg/mL
O=C1/C(=C/c2ccc(O)c(O)c2)Oc2cc(O)c(-c3ccc(O)c(O)c3)c(O)c21  EC50 (DPPH scavenging, absorbance): 420 µM
COc1ccc2c(c1)c(CC(=O)OCOC(C)=O)c(C)n2C(=O)c1ccc(Cl)cc1  latency of nociceptive response (hot plate test; BALB/c mice; 100 mg/kg, 120 min): 16.8 ± 1.05 s
COc1ccc2c(c1OC)C(C(Cl)(Cl)Cl)N1CCc3cc4c(cc3C1=C2)OCO4 (centres unmarked)  urea (rat, STZ-induced diabetic, serum; oral, 12 mg/kg, day 28): 43.2 ± 1.66 mg/dL
CCc1nnc(NS(=O)(=O)c2ccc(NC(=S)NC(=O)/C=C/c3ccc(F)cc3)cc2)s1  microvascular area (refers to: CD31; NXS2 allograft, A/J mice, tumour; intraperitoneal, 20 mg/kg daily, 3 weeks; baseline: vehicle): decreased
COC(=O)C(Cc1c[nH]cn1)NC(=O)C1(C)C(O)CCC2(C)C1CCC1(C)C2CC=C2C3C(C)C(C)CCC3(C)CCC21C (centres unmarked)  clinical activity score (rat TNBS-induced colitis; oral, dose not given, day 7; direction not given): 2.66 ± 0.57
O=c1c(OCc2ccccc2)c(-c2ccc(Cl)cc2)oc2ccccc12  blood glucose (diabetic rat; 5 mg/kg, day 7, p-nitrophenyl β-glucoside induced): 335 ± 4.81 mg/dL
CC(=O)N[C@@H](CC(N)=O)C(=O)NCC(=O)N[C@@H](C)C(=O)N[C@@H](C)C(N)=O  rate constant succinimide to β-Asp (1H NMR; sodium phosphate buffer 50 mM; pH 6.3, 55 °C): 0.324 h⁻¹
CSCC[C@@H]1NC(=O)[C@H](C)NC(=O)[C@H]([C@@H](C)O)NC(=O)CNC(=O)[C@H](CC(C)C)NC(=O)[C@H](CCC(N)=O)NC(=O)[C@H](CCCNC(=N)N)NC(=O)[C@@H]2CSSC[C@@H]3NC(=O)[C@@H]4CCCN4C(=O)[C@H](C(C)C)NC(=O)[C@H](CCC(N)=O)NC(=O)[C@H](CCC(N)=O)NC(=O)CNC(=O)[C@H](CC(C)C)NC(=O)[C@@H]4CSSC[C@H](NC(=O)[C@H]([C@@H](C)O)NC(=O)[C@H](C)NC(=O)[C@H](CSSC[C@@H](C(=O)N[C@@H](CO)C(=O)N[C@@H](CCC(N)=O)C(=O)N[C@H](C(N)=O)[C@@H](C)O)NC(=O)[C@@H]5CCCN5C(=O)[C@H](CC(N)=O)NC1=O)NC(=O)[C@@H]1CCCN1C(=O)[C@H](CC(=O)O)NC(=O)[C@H](CSSC[C@H](NC(=O)[C@H](CCC(N)=O)NC(=O)[C@H](CCC(N)=O)NC(=O)[C@H](CO)NC(=O)[C@@H](N)CO)C(=O)N[C@@H](C(C)C)C(=O)N[C@@H](CCCNC(=N)N)C(=O)N[C@@H](CC(C)C)C(=O)N[C@@H](Cc1c[nH]cn1)C(=O)N[C@@H](CCC(=O)O)C(=O)N[C@@H](CO)C(=O)N4)NC3=O)C(=O)N[C@@H](Cc1ccc(O)cc1)C(=O)N[C@H]1CSSC[C@H](NC(=O)[C@H](Cc3ccccc3)NC(=O)[C@H](C)NC(=O)[C@H](CC(N)=O)NC(=O)[C@H](Cc3ccccc3)NC(=O)[C@H](Cc3ccccc3)NC(=O)[C@H](CCCNC(=N)N)NC1=O)C(=O)N[C@@H](Cc1ccc(O)cc1)C(=O)N2  food intake (Long-Evans rat, male; intracerebroventricular, 1.0 nmol, day 3, non-cumulative; baseline: saline): -3.45 ± 0.2 % above saline
O=C1c2c(O)cc3oc4cc(O)c(O)cc4c3c2OC1Cc1ccc(O)c(O)c1 (centres unmarked)  EC50 (DPPH scavenging, absorbance): 50 µM
CC/C=C\C/C=C\C/C=C\C/C=C\C/C=C\CCCCOC(CC)C(=O)O (centres unmarked)  fibrosis area change (Sirius red; APOE*3Leiden.CETP mice, high-fat/cholesterol diet; dose not given, 20 weeks; baseline: control): -26%
CC[C@H]1[C@@H](O)[C@@H]2[C@H](CC[C@]3(C)[C@@H]([C@H](C)CCOS(=O)(=O)[O-])CC[C@@H]23)[C@@]2(C)CC[C@@H](O)C[C@@H]12.[Na+]  whole-body fat mass (EchoMRI; ob/ob NASH mouse model; oral, 3 mg/kg once daily, 8 weeks; baseline: body weight): 40.4 ± 0.9%
Cc1ccc(=O)n(-c2ccc(O)cc2)c1  hepatic ballooning and inflammation (H&E staining; BALB/c mouse, CCl4 liver injury, liver; oral, 1 mmol/kg daily, 4 weeks): decreased
COc1ccc(S(=O)(=O)N2CCc3ccccc3C2)cc1N1CCN(C(=O)c2ccc(F)cc2C(F)(F)F)CC1  DAT-ir cells in SNpc (6-OHDA lesioned rats; 0.3 µg/24 h, 12 weeks post lesion; baseline: intact side): 13.2 ± 2.1%
Cc1ccc(C2=C(c3ccc([18F])cc3)C(=O)OC2(C)C)cc1  normalized muscle uptake (PET/CT; mouse, SK-OV-3/COX-1 peritoneal tumour, muscle; retro-orbital, 5 min): 3.4 ± 0.9
S=c1n(CN2CCN(c3ccccc3)CC2)nc(C23CC4CC(CC(C4)C2)C3)n1-c1ccccc1  inhibition in vivo (paw oedema; rat; intraperitoneal, 20 mg/kg): 22.5%
Cc1nc(C)c(C=[N+]([O-])C(C)(C)C)nc1C  protein level increase (Western blot, refers to: GSK-3β phospho-Ser9; mouse, MPTP model; 90 mg/kg): 299%
COc1ccc(C2CC(c3ccc(C)cc3)=Nc3ccccc3S2)cc1OC (centres unmarked)  blood glucose (Wistar rat, STZ-induced diabetes; oral, 20 mg/kg once daily, day 28): 104 mg/dL
O=C1c2c(O)cc3oc4cc(O)c(O)cc4c3c2OC1Cc1ccc(O)cc1 (centres unmarked)  EC50 (DPPH scavenging, absorbance): 100 µM

Some of these lines once more:
O=C1/C(=C/c2ccc(O)c(O)c2)Oc2cc(O)c(-c3ccc(O)c(O)c3)c(O)c21  EC50 (DPPH scavenging, absorbance): 420 µM
CN(C)c1ccc(-c2oc3ccccc3c(=O)c2OCc2ccccc2)cc1  blood glucose (diabetic rat; 5 mg/kg, day 7, p-nitrophenyl β-glucoside induced): 331 ± 4.73 mg/dL
COC(=O)C(Cc1c[nH]cn1)NC(=O)C1(C)C(O)CCC2(C)C1CCC1(C)C2CC=C2C3C(C)C(C)CCC3(C)CCC21C (centres unmarked)  clinical activity score (rat TNBS-induced colitis; oral, dose not given, day 7; direction not given): 2.66 ± 0.57
Cc1nc(C)c(C=[N+]([O-])C(C)(C)C)nc1C  protein level increase (Western blot, refers to: GSK-3β phospho-Ser9; mouse, MPTP model; 90 mg/kg): 299%
O=C(NCc1cc(F)cc(F)c1)[C@@]1(O)CCN(c2ccc3[nH]ccc3c2)C1=O  T/C (CAKI-1 xenograft, mouse; oral, 10 mg/kg twice daily): 71%
